Published values pooled from the literature.
Each line is one published result; not all experiments were run side by side. “And” joins repeats or separate records; there may be more than shown. Numbers after ± are the reported error.
Chain of UniProt Q53GS9 (whole entry, looked up): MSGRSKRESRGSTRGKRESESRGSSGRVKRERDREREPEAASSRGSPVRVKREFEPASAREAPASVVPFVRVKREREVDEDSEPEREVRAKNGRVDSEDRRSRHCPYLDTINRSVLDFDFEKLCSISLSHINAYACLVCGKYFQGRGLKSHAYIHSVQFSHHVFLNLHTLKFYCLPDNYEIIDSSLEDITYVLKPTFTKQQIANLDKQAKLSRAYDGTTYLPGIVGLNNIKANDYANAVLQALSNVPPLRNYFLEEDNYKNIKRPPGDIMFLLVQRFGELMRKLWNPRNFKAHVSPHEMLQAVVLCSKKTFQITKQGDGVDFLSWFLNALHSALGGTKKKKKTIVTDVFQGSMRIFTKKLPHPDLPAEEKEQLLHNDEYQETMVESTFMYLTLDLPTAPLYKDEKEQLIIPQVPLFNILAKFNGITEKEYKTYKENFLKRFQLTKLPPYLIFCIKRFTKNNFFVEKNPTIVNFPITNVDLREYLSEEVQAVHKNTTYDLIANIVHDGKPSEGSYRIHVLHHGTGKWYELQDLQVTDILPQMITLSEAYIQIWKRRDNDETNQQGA
Chain of UniProt Q70CQ1 (whole entry, looked up): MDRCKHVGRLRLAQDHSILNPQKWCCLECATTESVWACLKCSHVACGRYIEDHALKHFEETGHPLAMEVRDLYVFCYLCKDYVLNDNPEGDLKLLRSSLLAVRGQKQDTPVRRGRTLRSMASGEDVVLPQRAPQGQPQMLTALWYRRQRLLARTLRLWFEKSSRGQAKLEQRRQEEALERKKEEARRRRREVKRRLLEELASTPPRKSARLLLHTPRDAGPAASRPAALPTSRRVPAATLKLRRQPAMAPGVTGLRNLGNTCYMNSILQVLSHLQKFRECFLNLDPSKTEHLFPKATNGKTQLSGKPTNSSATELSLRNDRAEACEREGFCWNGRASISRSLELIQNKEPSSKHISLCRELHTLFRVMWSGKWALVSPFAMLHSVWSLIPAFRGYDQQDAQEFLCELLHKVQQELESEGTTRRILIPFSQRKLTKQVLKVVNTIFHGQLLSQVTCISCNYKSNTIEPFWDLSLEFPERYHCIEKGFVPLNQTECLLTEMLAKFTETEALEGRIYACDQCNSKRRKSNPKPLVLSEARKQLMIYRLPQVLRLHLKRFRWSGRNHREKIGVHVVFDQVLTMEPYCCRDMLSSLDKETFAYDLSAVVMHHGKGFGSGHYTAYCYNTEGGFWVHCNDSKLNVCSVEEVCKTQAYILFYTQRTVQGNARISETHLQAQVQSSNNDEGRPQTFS

For Clc1ccc(COc2ccccc2CNCc2ccccc2)cc1, the cytotoxic concentration was > 12.5 µM (A549).
CCc1nn(CCCN2CCN(c3cccc(Cl)c3)CC2)c(=O)n1CCOc1ccccc1 gave an EC50 of 55.3 µM (HepaRG; cytotoxicity, CellTiter-Glo; 24 h).
For CSc1c(-c2nc3ccccc3s2)c(N)n(NS(=O)(=O)c2ccccc2)c(=O)c1C#N, “maximum non-toxic concentration” read 100 µg/mL (HEp-2; 72 h).
Nc1nc(NS(=O)(=O)c2ccccc2)ncc1-c1nc2ccccc2s1 — result for “maximum non-toxic concentration”: 100 µg/mL (HEp-2; cytotoxicity; 72 h).
With CC[C@]1(O)C[C@@H]2CN(CCc3c([nH]c4ccccc34)[C@@](C(=O)OC)(c3cc4c(cc3OC)N(C)[C@H]3[C@@](O)(C(=O)OC)[C@H](OC(C)=O)[C@]5(CC)C=CCN6CC[C@]43[C@@H]65)C2)C1 the cytotoxicity was 76% (human peripheral blood lymphocytes; CBPI, micronucleus test; 10 ng/mL, 24 h, without S9; baseline: vehicle).
For COc1cc(C2=CCCc3c2ccc(OC)c3OCc2ccc([N+](=O)[O-])o2)cc(OC)c1OC, “hypoxic cytotoxicity ratio” read 1.2 (A549; SRB; 4 h exposure; baseline: oxic IC50 over anoxic IC50).
For CO[C@@]12[C@H](COC(N)=O)C3=C(C(=O)C(C)=C(N)C3=O)N1C[C@@H]1N[C@@H]12, the cytostasis was 61% (human peripheral blood lymphocytes; in vitro micronucleus test; 0.25 µg/mL, 3 h exposure, -S9, 27 h harvest).
Cc1noc(C)c1Cn1cc(N2C(=O)CN(Cc3cccc(O)c3)C2=O)cn1 — result for “aberrant cells with gaps”: 6% (human blood lymphocytes; 1300 µg/mL, 3 h, with 5% S9).
For CSc1nc(NS(=O)(=O)c2ccc(C)cc2)nc(N)c1-c1nc2ccccc2s1, “maximum non-toxic concentration” read 100 µg/mL (HEp-2; cytotoxicity; 72 h).
O=C(O)[C@H](O)[C@@H](O)[C@H](O)[C@H](O)CO: “z-scored log2 fold change” 0.237 (binding, equilibrium dialysis LC-MS; 5 µM, thermostabilized A2AR-BRIL construct; baseline: no-protein control, direction not given).
With Cc1ncc([N+](=O)[O-])n1CCO the CC50 was ~200 µM (LMH chicken hepatoma cells).
For O=c1[nH]cc(F)c(=O)[nH]1, the viability was 35.2 ± 2.02% (H460; CCK-8; 50 µM, 72 h; baseline: control).
Under “z-scored log2 fold change”, CC(=O)N[C@H]1C(O)O[C@H](CO)[C@@H](O)[C@@H]1O[C@H](C)C(=O)O (stereo partly drawn) is recorded as -0.494 (binding, equilibrium dialysis LC-MS; 5 µM, thermostabilized A2AR-BRIL construct; baseline: no-protein control, direction not given).
For Cc1ccc(S(=O)(=O)Nn2c(N)c(-c3nc4ccccc4s3)c3[nH]nc(N)c3c2=O)cc1, “maximum non-toxic concentration” read 90 µg/mL (HEp-2; 72 h).
CC(C)[C@H](NC(=O)[C@H](Cc1ccc(O)cc1)NC(=O)[C@H](Cc1ccc(O)cc1)NC(=O)[C@@H]1CCCN1C(=O)[C@H](CCC(=O)O)NC(=O)[C@H](CCC(=O)O)NC(=O)[C@H](Cc1c[nH]c2ccccc12)NC(=O)[C@@H]1CCCN1C(=O)[C@@H](NC(=O)[C@H](CCC(N)=O)NC(=O)c1ccc2c(c1)C(=O)OC21c2ccc(O)cc2Oc2cc(O)ccc21)C(C)C)C(=O)N[C@H](C(=O)N[C@@H](CCCCN)C(=O)N[C@@H](CCCCN)C(=O)N[C@@H](CO)C(=O)N[C@@H](CO)C(=O)NCC(=O)NCC(N)=O)C(C)C has a plasma concentration of 262 ng/mL (human, plasma; intravenous infusion, 200 mg, 2 h).
For C[C@]12CC[C@@H]3c4ccc(O)cc4C[C@@H](CCCCCCCCC[S+]([O-])CCCC(F)(F)C(F)(F)F)[C@H]3[C@@H]1CC[C@@H]2O (stereo partly drawn), the viability was 76.5% and 72.8% and 71.2% (T47D; CCK-8; 100 nM; baseline: untreated).
Cc1cc(C)c(CNC(=O)c2cc(Cl)c3c(c2C)O[C@@](C)([C@H]2CC[C@H](N(C)C)CC2)O3)c(=O)[nH]1 has an efflux ratio of 18.3 (Caco-2; 100 µM).
O=C(O)CNc1ncccn1 gave a Kd of > 1 mM (Ubiquitin carboxyl-terminal hydrolase 49, ZnF-UBD domain (USP49, Homo sapiens, UniProt Q70CQ1)).
O=C(Nc1ccncc1)c1cc([N+](=O)[O-])ccc1Cl gave a selectivity index of 29 (differentiated THP-1; 72 h; baseline: THP-1 CC50 over EC50).
Under “maximum non-toxic concentration”, Cc1ccc(C(=O)CNc2nc(NS(=O)(=O)c3ccccc3)ncc2-c2nc3ccccc3s2)cc1 is recorded as 100 µg/mL (HEp-2; cytotoxicity; 72 h).
With CC[C@]1(O)C[C@H]2CN(CCc3c([nH]c4ccccc34)[C@@](C(=O)OC)(c3cc4c(cc3OC)N(C=O)[C@H]3[C@@](O)(C(=O)OC)[C@H](OC(C)=O)[C@]5(CC)C=CCN6CC[C@]43[C@@H]65)C2)C1 the viability was 12% and 15.4% and 12.7% (CHP-212 resistant subline R2 (heterozygous USP7 V517F); cell viability; 370.37 nM).
Fc1ccc(COc2ccccc2CNCc2ccccc2)cc1 has a cytotoxic concentration of > 12.5 µM (HEK293).
Cc1ncc([N+](=O)[O-])n1CCOC(=O)c1ccccc1 has a CC50 of ~200 µM (LMH chicken hepatoma cells).
For COc1ccc2c(Cc3ccccc3F)c3[n+](cc2c1OC)CCc1cc2c(cc1-3)OCO2, the IC50 was 52.2 µM (NIH3T3; cytotoxicity, CCK-8; 24 h).
CC(=O)[C@]1(O)Cc2c(O)c3c(c(O)c2[C@@H](O[C@H]2C[C@H](N)[C@H](O)[C@H](C)O2)C1)C(=O)c1ccccc1C3=O gave a selectivity index of 3 (differentiated THP-1; 72 h; baseline: THP-1 CC50 over EC50).
The Kd of O=C(O)CCc1ccno1 is reported as > 1 mM (Ubiquitin carboxyl-terminal hydrolase 39, ZnF-UBD domain (Homo sapiens, UniProt Q53GS9)).
For NC(=O)c1ncn([C@@H]2O[C@H](CO)[C@@H](O)[C@H]2O)n1, the CC50 was > 100 µM (BHK-D2-Rluc; MTT; 48 (unit not given)).
For Cc1ccc(S(=O)(=O)Nc2nc(N)c(-c3nc4ccccc4s3)c(-c3ccc(Cl)cc3)n2)cc1, “maximum non-toxic concentration” read 100 µg/mL (HEp-2; cytotoxicity; 72 h).
Under “hypoxic cytotoxicity ratio”, COc1ccc2c(c1NC(=O)OCc1cnc([N+](=O)[O-])n1C)CCC=C2c1cc(OC)c(OC)c(OC)c1 is recorded as 2.2 (A549; 4 h anoxic; baseline: oxic IC50 over anoxic IC50).
With C[C@@H](c1ccc2nccn2c1)n1nnc2ncc(-c3cnn(C)c3)nc21 the mRNA induction was 7.7 to 16% (primary human hepatocytes; refers to: CYP3A4; concentration not given, 48 h; baseline: rifampicin).
Nc1nc(NS(=O)(=O)c2ccccc2)nc(-c2ccc(F)cc2)c1-c1nc2ccccc2s1 — result for “maximum non-toxic concentration”: 110 µg/mL (HEp-2; cytotoxicity; 72 h).
With CC(Cc1ccc(O)c(O)c1)C(C)Cc1ccc(O)c(O)c1 (stereo not drawn) the cytotoxicity was < 15% (HepaRG; CellTiter-Glo; up to 100 µM, 24 h).
Under “maximum non-toxic concentration”, O=C(CNc1nc(NS(=O)(=O)c2ccccc2)ncc1-c1nc2ccccc2s1)c1ccc(Cl)cc1 is recorded as 110 µg/mL (HEp-2; cytotoxicity; 72 h).
[NH2][Pt]([NH2])([Cl])[Cl] gave a viability decline of ~45% (HK-2; CCK-8; 40 µM, 24 h; baseline: untreated).
For c1csc(CNc2cc[nH]n2)c1, “numerical aberration cells” read 0% (human peripheral blood lymphocytes; 2160 µg/mL, 4 h).
With Cc1cc(C(=O)NC(C)(C)COc2cccc3c2C(N)=NS(=O)(=O)N3)cc(C)n1 the cytotoxicity was 12% (human peripheral blood lymphocytes; CBPI, preliminary test; 6 µg/mL, 4 h, with: rat liver S9; baseline: vehicle control).
CCOC(=O)c1cc(C#N)c(=O)n(NS(=O)(=O)c2ccccc2)c1N: “maximum non-toxic concentration” 90 µg/mL (HEp-2; 72 h).
Under cytotoxicity, CCOCc1nc2c(N)nc3ccccc3c2n1CC(C)(C)O is recorded as “not toxic” (Ramos; up to 30 µM).
The CC50 of N#C[C@@]1(c2ccc3c(N)ncnn23)O[C@H](CO)[C@@H](O)[C@H]1O is reported as > 100 µM (primary human hepatocytes; spare respiratory capacity, Seahorse OCR; 4 h).
COc1cccc2c1C(=O)c1c(O)c3c(c(O)c1C2=O)C[C@@](O)(C(=O)CO)C[C@@H]3O[C@H]1C[C@H](N)[C@H](O)[C@H](C)O1 has a viability of 60 ± 0.64% (1321N1 cells; MTT; 10 µM, 24 h; baseline: untreated).
For CCSc1c(-c2nc3ccccc3s2)c(N)n(NS(=O)(=O)c2ccc(C)cc2)c(=O)c1C#N, “maximum non-toxic concentration” read 120 µg/mL (HEp-2; 72 h).
CCN(CCO)CCCOc1ccc2c(Nc3cc(CC(=O)Nc4cccc(F)c4)[nH]n3)ncnc2c1 has an inhibition of -76% (NLRP3 inflammasome (mouse); mouse BMDM; 10 µM).

For quick reference, copied from above:
CCc1nn(CCCN2CCN(c3cccc(Cl)c3)CC2)c(=O)n1CCOc1ccccc1 gave an EC50 of 55.3 µM (HepaRG; cytotoxicity, CellTiter-Glo; 24 h).
For CSc1c(-c2nc3ccccc3s2)c(N)n(NS(=O)(=O)c2ccccc2)c(=O)c1C#N, “maximum non-toxic concentration” read 100 µg/mL (HEp-2; 72 h).
Nc1nc(NS(=O)(=O)c2ccccc2)ncc1-c1nc2ccccc2s1 — result for “maximum non-toxic concentration”: 100 µg/mL (HEp-2; cytotoxicity; 72 h).
With CC[C@]1(O)C[C@@H]2CN(CCc3c([nH]c4ccccc34)[C@@](C(=O)OC)(c3cc4c(cc3OC)N(C)[C@H]3[C@@](O)(C(=O)OC)[C@H](OC(C)=O)[C@]5(CC)C=CCN6CC[C@]43[C@@H]65)C2)C1 the cytotoxicity was 76% (human peripheral blood lymphocytes; CBPI, micronucleus test; 10 ng/mL, 24 h, without S9; baseline: vehicle).
For COc1cc(C2=CCCc3c2ccc(OC)c3OCc2ccc([N+](=O)[O-])o2)cc(OC)c1OC, “hypoxic cytotoxicity ratio” read 1.2 (A549; SRB; 4 h exposure; baseline: oxic IC50 over anoxic IC50).
For CO[C@@]12[C@H](COC(N)=O)C3=C(C(=O)C(C)=C(N)C3=O)N1C[C@@H]1N[C@@H]12, the cytostasis was 61% (human peripheral blood lymphocytes; in vitro micronucleus test; 0.25 µg/mL, 3 h exposure, -S9, 27 h harvest).
